Measurements pooled from the literature.
Parts stem from different laboratories: compare values within a part only. Values joined by “and” are separate records of one study, mostly repeats; a detail may differ.

Block 1
Target: Replicase polyprotein 1ab, nsp13 helicase (rep, Severe acute respiratory syndrome coronavirus 2, UniProt P0DTD1)
Mode: inhibitor
Concentration: 20 µM
Quantity: inhibition
CCCC(=O)C1CCN(c2ncnc3c2CN(C(=O)c2ccc(-c4ccccc4)cc2)CC3)CC1: 6.41%
CC(C)N(CCNC(=O)CN1CCCC1=O)C(C)C: -0.84%
COC1=C(OC)C(=O)C(C/C=C(\C)CC/C=C(\C)CC/C=C(\C)CC/C=C(\C)CC/C=C(\C)CC/C=C(\C)CC/C=C(\C)CC/C=C(\C)CC/C=C(\C)CCC=C(C)C)=C(C)C1=O: -1.07%
CCCCCCCCC(=O)N[C@H](CN1CCCC1)[C@H](O)c1ccc2c(c1)OCCO2: 6.41%
O=C(O)/C=C\c1c[nH]cn1: -5.03% and 3.24%
CC[C@H](C)C(=O)O[C@H]1C[C@@H](C)C=C2C=C[C@H](C)[C@H](CC[C@@H]3C[C@@H](O)CC(=O)O3)[C@H]21: -1.2%
CC(C)(Oc1ccc(CCNC(=O)c2ccc(Cl)cc2)cc1)C(=O)O: 4.48%
NC(=O)C(c1ccccc1)(c1ccccc1)[C@@H]1CCN(CCc2ccc3c(c2)CCO3)C1: 6.29%
CCCN(CCC)[C@@H]1CCc2c(OC)cccc2[C@@H]1C: 2.08%
CC(C)C(=O)OC[C@H]1O[C@@H](n2ccc(N)nc2=O)[C@](C)(F)[C@@H]1OC(=O)C(C)C: -2.07%
C/C=C/c1cc(OC)c(OC)cc1OC: 9.94%
CCC(C)(C)c1ccc(CC(C)CN2C[C@@H](C)O[C@@H](C)C2)cc1 (stereo partly shown): 10.3%
CN(C)CCC=C1c2ccccc2C=Cc2ccccc21: 0.79%
O=S(=O)(O)c1ccc(O)cc1: -2.88%
O=C(Nc1ccc2c(O)cc(S(=O)(=O)O)cc2c1)Nc1ccc2c(O)cc(S(=O)(=O)O)cc2c1: 84.8%
CC(=O)N(CC(O)CN(C(C)=O)c1c(I)c(C(=O)NC[C@@H](O)CO)c(I)c(C(=O)NC[C@@H](O)CO)c1I)c1c(I)c(C(=O)NC[C@@H](O)CO)c(I)c(C(=O)NC[C@@H](O)CO)c1I: 2.14%
C[C@@H](c1ncncc1F)[C@](O)(Cn1cncn1)c1ccc(F)cc1F: 6.09%
CC(=O)N(O)[C@@H]1c2cc(C#N)ccc2OC(C)(C)[C@H]1O: 0.28%
Cc1cc(OCCN2CCOCC2)nn1-c1ccc2ccccc2c1: 0.38%
O=C(O)c1cc2occc2[nH]1: 0.36%
CCCCCCCC/C=C\CCCCCCCC(=O)OC(CO)CO: 3.91%
Cc1ccc(C[N+](C)(C)C)o1: 3.38%
COc1ccc(C(=O)N2CCN(c3ccc4c(c3)CCC(=O)N4)CC2)cc1OC: 3.15%
Nc1ccc2ncnc(NCCc3ccc(Oc4ccccc4)cc3)c2c1: 7.51%

Block 2
Target: Interferon regulatory factor 5, full length, phosphomimetic (IRF5, Homo sapiens, UniProt Q13568-2, residues 1-514, S451D/S453D/S456D/S462D)
Technique: protein-binding microarray
Molecule type: double-stranded DNA, one strand shown
Medium: in vitro
Concentration: 940 nM top
Notes: 60-bp whole probe
Added: salmon DNA 0.4 mg/ml
Baseline: random background probes
Reading: higher = stronger binding
Quantity: fitted relative affinity
Shared flanks, not repeated: GCCTAGCAC … GTCTTGATTCGCTTGACGCTGCTG
CATTGCCTGTTTTTCCCCTGGTGCTAG: 1.02 z-score
GACGATATCAGTATCTAGACGTGCTAG: -0.0857 z-score
GACGGTATCCTTATCGTGACGTGCTAG: -0.052 z-score
TTAGAACTGGGGATTCGATTAGTGCTA: 0.278 z-score
TCACATATATATATGAAACTGTGCTAG: 0.486 z-score
TTAGAACTGGGTATCGATTAGTGCTAG: 3.45 z-score
TCAATGCTGGCTTTTATACTGTGCTAG: -0.169 z-score
GTAGAACTGGGGACTGGATTAGTGCTA: -0.199 z-score

Block 3
Target: RING finger protein unkempt homolog, zinc fingers 1-6, GST-SBP tag (UNK, Homo sapiens, UniProt Q9C0B0, residues 30-357)
Technique: RNA Bind-n-Seq
Molecule type: RNA
Medium: in vitro
Concentration: not given
Notes: RNA with constant flanks, human and mouse sites, ends assumed
Baseline: input RNA pool
Reading: higher = stronger binding
Quantity: bound/input enrichment
Shared flanks, not repeated: GGGAGUUCUACAGUCCGACGAUC … CAACAGAGGAUUGAGCAUCA
Construct (chain): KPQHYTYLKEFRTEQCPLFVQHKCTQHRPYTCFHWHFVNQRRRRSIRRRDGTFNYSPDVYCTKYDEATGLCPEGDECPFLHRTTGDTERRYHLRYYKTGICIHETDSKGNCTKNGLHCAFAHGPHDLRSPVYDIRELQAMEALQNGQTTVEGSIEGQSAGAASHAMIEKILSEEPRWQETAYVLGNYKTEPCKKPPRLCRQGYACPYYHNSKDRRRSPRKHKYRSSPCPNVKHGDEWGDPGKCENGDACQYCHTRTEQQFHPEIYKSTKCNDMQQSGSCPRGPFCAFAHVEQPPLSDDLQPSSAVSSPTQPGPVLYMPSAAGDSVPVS
AAGAUUGGGCUUAUUCAGUUUUGCUUAUCUGCUCCCAAAACAGACAUGGAUAAUCAAAUAGUGGUUUCUGACUAUGCCCAGAUGGACCGAGUGCUGCGAGAAGAGAGAGCCUAUAUUUUA: 0.494 ratio
AGGCUCAUCCAGCCCUAUAUCCACAACUACUCCUGGCUGCUCUUUGCUGCCCUGGCUCUCUAUAGUGCCCACCUGACCAGUACAGAGCAGGUGGAUGGGGAGCAGCUGGACCCCCAGGCC: 0.0949 ratio
CAUAGCCUGAACAUCGUCCACCGUGAUAUCAAGCCAGAGAACCUGCUGGUGUAUGAGCACCAAGAUGGCAGCAAAUCACUGAAGCUGGGUGACUUUGGACUGGCCACCAUUGUAGACGGC: 0.157 ratio
AUUAGGCCUCUCUGGAGGCAUUACUUCCAGAAUACCCAGGGUCUCAUUUUUGUGGUAGAUAGCAAUGAUCGUGAAAGAAUCCAGGAAGGAGCAGCUGUGCUGCAGAAAAUGCUUCUGGAA: 0.396 ratio
AAGGCUGAGUGUGGCAAAGCCUUCGUCUCCAAGUAUAAGCUGAUGAGACACAUGGCCACACACUCGCCACAGAAGAUUCACCAGUGUACUCACUGUGAGAAGACAUUCAACCGGAAGGAC: 0.135 ratio
CUUGCAGUGAGGAAAAGAACAAUUAUUGCUCUUGGCCACCUAGUUAUGAGCUGCGGAAAUAUAGUUUUUGUAGACCUUAUUGAACAUCUGUUGUCAGAGUUGUCCAAAAAUGACUCCAUG: 0.582 ratio
AGUAUGAUUAAUACAACAGGUGCCGUGGAUUCAGGGUCCUCCUCCUCUUCCUCCUCUUCUAGUUUUGUGAAUGGUGCUACUAGCAAAAACCUUCCAGCUGUACAAACUGUUGCUCCAAUG: 1.52 ratio
CGUCAAACUUUUGGUUGUGUGGGGUUUUUUGUUGUUUUUUGGGUUUUGUUUUUUAAUACUUUAGGGUCCUGAUUUGUGGGAACAGACCUUCUUGUAAAUAACCACUAUUUGAGUUGUGGC: 0.675 ratio

Block 4
Target: Histone acetyltransferase KAT6A, winged helix 2, GST fusion (KAT6A, Homo sapiens, UniProt Q92794, residues 85-181)
Technique: protein binding microarray
Molecule type: double-stranded DNA, one strand shown
Medium: in vitro
Concentration: not given
Notes: 8-mer, flanks averaged, mean of 2 arrays, mostly near background
Baseline: not given
Reading: higher = stronger binding
Quantity: E-score
Construct (chain): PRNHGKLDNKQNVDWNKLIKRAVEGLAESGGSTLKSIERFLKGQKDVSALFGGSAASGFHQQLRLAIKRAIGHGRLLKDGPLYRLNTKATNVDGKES
GCGTGGCA: 0.127
AGTGGGAC: 0.0198
CACTCCTA: -0.0537
CGGACTTA: -0.202
GACCAGCA: 0.0407
CGCTAGGC: 0.0719
CTCCAAGC: 0.00152
CACGCGCC: 0.061

Block 5
Cell line: HEK-293T/ACE2
Concentration: 10 µM
Time: 16 h
Baseline: vehicle
Quantity: viability
Cc1ncc(CO)c(CO)c1O: 101%
Cn1c(=O)c2c(ncn2CC(O)CO)n(C)c1=O (stereo not shown): 100%
C[C@]12C=CC(=O)C=C1CC[C@@H]1[C@@H]2[C@@H](O)C[C@@]2(C)[C@H]1CC[C@]2(O)C(=O)CO: 103%
CC(C)(Oc1ccc(C(=O)c2ccc(Cl)cc2)cc1)C(=O)O: 99.6%

Block 6
Target: Replicase polyprotein 1ab, main protease (rep, Severe acute respiratory syndrome coronavirus 2, UniProt P0DTD1)
Effect on: enzyme activity
Mode: inhibitor
Concentration: 20 µM
Notes: primary screen
Quantity: inhibition
CN1CCN(C(=O)c2ccc(-c3ccc4c(C=O)c(O)ccc4c3)s2)CC1: 45.5%
CCCOc1ccc(CSc2nnc[nH]2)cc1: 56.7%
CC(=O)N=c1sc(S(N)(=O)=O)nn1C: 44.8%

A few entries again (block 2):
CATTGCCTGTTTTTCCCCTGGTGCTAG: 1.02 z-score
GACGATATCAGTATCTAGACGTGCTAG: -0.0857 z-score
GACGGTATCCTTATCGTGACGTGCTAG: -0.052 z-score
TTAGAACTGGGGATTCGATTAGTGCTA: 0.278 z-score
TCACATATATATATGAAACTGTGCTAG: 0.486 z-score
TTAGAACTGGGTATCGATTAGTGCTAG: 3.45 z-score
TCAATGCTGGCTTTTATACTGTGCTAG: -0.169 z-score
